# Results collected from several papers.
# Compare with care: the assays were run in different laboratories. Numbers after ± are the reported error.
# Low molecular weight phosphotyrosine protein phosphatase isoform A: Low molecular weight phosphotyrosine protein phosphatase, isoform A (Mus musculus, UniProt Q9D358)
# UniProt Q9D358, sequence (whole entry, looked up): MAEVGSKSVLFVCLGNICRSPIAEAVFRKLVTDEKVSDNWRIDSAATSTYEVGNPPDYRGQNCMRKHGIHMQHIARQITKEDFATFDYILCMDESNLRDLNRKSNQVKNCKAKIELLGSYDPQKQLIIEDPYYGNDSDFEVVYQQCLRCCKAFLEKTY
# Serotonin N-acetyltransferase: Serotonin N-acetyltransferase (Ovis aries, UniProt Q29495)
# UniProt Q29495, sequence (whole entry, looked up): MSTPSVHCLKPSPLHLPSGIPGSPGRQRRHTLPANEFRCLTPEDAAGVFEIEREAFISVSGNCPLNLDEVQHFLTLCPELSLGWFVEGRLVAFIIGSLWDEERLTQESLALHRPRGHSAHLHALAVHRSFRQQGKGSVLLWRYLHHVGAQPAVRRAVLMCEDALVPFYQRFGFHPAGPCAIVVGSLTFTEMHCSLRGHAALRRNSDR
# Urease subunit alpha: Urease subunit alpha (Sporosarcina pasteurii, UniProt P41020)
# UniProt P41020, sequence (whole entry, looked up): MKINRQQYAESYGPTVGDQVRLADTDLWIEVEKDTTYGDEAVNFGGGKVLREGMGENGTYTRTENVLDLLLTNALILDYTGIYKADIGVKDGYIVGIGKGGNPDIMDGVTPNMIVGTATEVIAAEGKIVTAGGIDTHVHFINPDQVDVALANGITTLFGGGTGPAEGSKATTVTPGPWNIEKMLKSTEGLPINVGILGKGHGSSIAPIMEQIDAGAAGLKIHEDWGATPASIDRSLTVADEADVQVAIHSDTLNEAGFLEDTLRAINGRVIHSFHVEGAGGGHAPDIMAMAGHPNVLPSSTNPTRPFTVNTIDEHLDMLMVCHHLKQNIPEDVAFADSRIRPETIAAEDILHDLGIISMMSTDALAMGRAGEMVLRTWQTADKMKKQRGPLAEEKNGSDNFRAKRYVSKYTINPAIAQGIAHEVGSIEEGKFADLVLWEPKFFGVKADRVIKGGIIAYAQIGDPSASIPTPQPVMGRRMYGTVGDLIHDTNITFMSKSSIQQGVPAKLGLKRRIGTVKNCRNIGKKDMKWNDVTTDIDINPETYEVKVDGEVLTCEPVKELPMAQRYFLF
# F12: Coagulation factor XII (F12, Homo sapiens, UniProt P00748)
# UniProt P00748, sequence (whole entry, looked up): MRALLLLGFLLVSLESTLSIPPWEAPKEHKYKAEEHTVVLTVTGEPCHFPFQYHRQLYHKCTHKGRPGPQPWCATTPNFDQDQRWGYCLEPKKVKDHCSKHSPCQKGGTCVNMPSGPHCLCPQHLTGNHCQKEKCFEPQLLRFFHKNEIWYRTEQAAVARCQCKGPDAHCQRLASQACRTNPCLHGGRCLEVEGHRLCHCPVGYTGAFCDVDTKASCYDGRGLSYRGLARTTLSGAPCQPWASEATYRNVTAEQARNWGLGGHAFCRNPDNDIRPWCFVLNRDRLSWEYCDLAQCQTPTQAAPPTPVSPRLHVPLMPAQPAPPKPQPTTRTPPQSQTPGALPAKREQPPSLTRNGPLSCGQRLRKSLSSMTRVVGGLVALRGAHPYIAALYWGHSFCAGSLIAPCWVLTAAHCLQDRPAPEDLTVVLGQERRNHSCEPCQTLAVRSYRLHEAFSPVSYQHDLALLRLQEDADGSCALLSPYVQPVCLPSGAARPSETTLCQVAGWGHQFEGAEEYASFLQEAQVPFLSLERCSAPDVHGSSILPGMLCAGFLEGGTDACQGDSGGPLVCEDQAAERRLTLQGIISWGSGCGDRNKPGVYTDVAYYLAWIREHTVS
# MAL12: Alpha-glucosidase MAL12 (MAL12, Saccharomyces cerevisiae S288c, UniProt P53341)
# UniProt P53341, sequence (whole entry, looked up): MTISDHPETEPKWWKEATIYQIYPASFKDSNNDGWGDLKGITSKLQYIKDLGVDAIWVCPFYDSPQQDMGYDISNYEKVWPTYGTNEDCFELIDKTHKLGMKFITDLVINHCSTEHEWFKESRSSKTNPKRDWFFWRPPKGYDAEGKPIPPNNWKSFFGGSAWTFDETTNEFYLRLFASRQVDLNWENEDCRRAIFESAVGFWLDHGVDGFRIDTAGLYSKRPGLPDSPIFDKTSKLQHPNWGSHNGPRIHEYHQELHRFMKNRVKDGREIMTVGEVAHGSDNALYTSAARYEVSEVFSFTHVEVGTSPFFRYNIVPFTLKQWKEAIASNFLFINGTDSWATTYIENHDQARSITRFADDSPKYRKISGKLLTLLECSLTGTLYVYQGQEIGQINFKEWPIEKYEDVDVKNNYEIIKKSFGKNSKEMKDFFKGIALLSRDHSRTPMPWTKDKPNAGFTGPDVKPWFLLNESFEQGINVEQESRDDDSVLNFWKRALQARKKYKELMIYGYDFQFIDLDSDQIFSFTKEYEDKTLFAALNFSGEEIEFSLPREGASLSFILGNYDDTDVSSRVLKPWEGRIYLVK
# Slc16a1: Monocarboxylate transporter 1 (Slc16a1, Mus musculus, UniProt P53986)
# UniProt P53986, sequence (whole entry, looked up): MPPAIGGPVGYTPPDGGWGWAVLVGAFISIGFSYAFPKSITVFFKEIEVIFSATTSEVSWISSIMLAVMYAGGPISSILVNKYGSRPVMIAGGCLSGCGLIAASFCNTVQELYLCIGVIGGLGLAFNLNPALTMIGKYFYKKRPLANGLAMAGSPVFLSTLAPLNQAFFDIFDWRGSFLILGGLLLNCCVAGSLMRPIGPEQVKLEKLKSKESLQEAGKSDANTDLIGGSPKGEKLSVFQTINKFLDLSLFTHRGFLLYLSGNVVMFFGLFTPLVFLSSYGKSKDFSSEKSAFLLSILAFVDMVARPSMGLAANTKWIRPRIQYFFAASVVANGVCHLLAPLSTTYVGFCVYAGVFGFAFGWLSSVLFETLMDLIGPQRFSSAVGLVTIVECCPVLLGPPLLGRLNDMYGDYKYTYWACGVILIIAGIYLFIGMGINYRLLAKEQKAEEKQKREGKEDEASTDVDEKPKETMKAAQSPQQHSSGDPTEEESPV
# Nuclear receptor subfamily 2 group C member 2 ligand-binding domain: Nuclear receptor subfamily 2 group C member 2, ligand-binding domain (Homo sapiens, UniProt P49116)
# UniProt Q99436, sequence (whole entry, looked up): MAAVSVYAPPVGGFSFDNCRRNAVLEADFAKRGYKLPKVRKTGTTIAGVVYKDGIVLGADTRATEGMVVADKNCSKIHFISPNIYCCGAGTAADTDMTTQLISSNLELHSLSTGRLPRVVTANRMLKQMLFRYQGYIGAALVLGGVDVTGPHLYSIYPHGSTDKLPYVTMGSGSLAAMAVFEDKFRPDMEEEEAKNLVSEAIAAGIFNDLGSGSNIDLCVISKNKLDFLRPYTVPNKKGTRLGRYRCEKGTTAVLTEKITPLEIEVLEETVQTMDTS
# UniProt P49116, sequence (whole entry, looked up): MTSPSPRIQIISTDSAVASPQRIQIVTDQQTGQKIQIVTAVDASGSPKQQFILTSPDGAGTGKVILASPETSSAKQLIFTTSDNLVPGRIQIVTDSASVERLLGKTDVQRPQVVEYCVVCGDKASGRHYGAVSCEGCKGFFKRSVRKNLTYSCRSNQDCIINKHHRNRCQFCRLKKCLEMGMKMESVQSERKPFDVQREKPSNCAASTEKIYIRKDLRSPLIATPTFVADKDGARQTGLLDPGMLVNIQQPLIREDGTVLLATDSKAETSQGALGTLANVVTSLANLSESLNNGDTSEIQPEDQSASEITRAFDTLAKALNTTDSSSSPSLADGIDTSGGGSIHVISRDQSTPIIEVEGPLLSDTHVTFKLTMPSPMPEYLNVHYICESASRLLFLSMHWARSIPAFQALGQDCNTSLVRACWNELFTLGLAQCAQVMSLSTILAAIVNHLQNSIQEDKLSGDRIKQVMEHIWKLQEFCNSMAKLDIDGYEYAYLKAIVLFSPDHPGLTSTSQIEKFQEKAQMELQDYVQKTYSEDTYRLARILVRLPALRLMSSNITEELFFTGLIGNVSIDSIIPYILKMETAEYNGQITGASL
# UniProt Q8TDW0, sequence (whole entry, looked up): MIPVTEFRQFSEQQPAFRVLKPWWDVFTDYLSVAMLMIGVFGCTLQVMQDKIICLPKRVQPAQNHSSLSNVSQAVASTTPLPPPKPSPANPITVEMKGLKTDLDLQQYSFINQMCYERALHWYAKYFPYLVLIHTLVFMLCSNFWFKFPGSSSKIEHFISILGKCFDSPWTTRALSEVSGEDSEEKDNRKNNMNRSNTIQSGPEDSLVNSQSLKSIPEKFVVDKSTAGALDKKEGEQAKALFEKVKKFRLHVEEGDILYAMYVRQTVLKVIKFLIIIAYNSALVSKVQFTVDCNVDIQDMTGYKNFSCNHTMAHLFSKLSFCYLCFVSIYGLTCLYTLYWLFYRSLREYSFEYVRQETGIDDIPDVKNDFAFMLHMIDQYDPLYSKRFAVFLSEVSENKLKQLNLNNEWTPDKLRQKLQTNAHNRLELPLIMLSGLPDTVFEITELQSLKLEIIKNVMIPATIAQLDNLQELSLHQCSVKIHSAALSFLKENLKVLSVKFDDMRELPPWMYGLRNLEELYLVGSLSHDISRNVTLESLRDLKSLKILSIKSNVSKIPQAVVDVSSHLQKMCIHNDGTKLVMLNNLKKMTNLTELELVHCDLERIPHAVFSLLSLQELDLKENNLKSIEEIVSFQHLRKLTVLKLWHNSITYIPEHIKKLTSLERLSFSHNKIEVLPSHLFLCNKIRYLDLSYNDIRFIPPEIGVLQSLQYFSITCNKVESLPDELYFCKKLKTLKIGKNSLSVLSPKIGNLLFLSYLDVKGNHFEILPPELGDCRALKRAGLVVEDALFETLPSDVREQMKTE
# UniProt Q04206, sequence (whole entry, looked up): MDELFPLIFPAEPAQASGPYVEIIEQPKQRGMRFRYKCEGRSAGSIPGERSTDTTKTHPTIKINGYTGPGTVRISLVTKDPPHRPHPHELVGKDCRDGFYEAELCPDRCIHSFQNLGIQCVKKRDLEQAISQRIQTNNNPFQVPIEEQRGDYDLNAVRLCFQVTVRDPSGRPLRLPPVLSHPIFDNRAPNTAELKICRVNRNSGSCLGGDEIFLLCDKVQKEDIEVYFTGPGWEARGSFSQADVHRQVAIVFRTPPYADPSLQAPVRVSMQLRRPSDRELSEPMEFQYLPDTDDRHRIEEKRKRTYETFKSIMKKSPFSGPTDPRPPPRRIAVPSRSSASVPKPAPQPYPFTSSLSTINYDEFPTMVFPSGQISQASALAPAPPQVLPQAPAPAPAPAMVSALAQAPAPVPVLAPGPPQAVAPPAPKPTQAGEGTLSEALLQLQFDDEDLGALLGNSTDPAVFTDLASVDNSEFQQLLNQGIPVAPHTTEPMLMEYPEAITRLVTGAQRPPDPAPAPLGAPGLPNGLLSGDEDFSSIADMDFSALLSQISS
Compound,target,test,test system,conditions,quantity,value
FC(F)(F)c1cccc(Nc2ncnc3ccc(-c4ccoc4)cc23)c1,"Epidermal growth factor receptor (EGFR, Homo sapiens, UniProt P00533)","kinase activity, inhibitor, HotSpot radiometric",,with: ATP 10 µM,IC50,0.00438 µM
Clc1cccc(-c2cc(NCCCN3CCCCC3)c3ccccc3n2)c1,Low molecular weight phosphotyrosine protein phosphatase isoform A,"enzyme activity, inhibitor",,with: OMFP substrate,IC50,1.12 µM
O=C(O)Cc1ccc(CN2C(=O)/C(=C3/C(=O)N(Cc4ccc(F)cc4)c4ccccc43)SC2=S)cc1,Serotonin N-acetyltransferase,"inhibitor, stopped-flow UV",,"with: serotonin 100 µM, acetyl-CoA 100 µM",IC50,9.9 ± 11 µM
COc1ccc(C2=NN(C3CCCCCC3)C(=O)[C@@H]3CC=CC[C@H]23)cc1-c1ccc(C(N)=O)cc1 (relative stereo),"Class 1 phosphodiesterase PDEB1 (PDEB1, Trypanosoma brucei, UniProt Q8WQX9)","enzyme activity, inhibitor, scintillation proximity",,with: 0.5 µM substrate,IC50,0.158 µM
COc1cccc(-c2cc(NCCCN3CCCCC3)c3ccccc3n2)c1,Low molecular weight phosphotyrosine protein phosphatase isoform A,"enzyme activity, inhibitor",,with: OMFP substrate,IC50,2.21 µM
Fc1ccc(/C=C/C=N/NC(=S)NCc2ccc(Br)cc2)cc1,Urease subunit alpha,"enzyme activity, indophenol method",,,IC50,23.2 ± 0.4 µM
O=C1NC(=S)N/C1=C1\C(=O)N(Cc2ccc(F)cc2)c2ccccc21,Serotonin N-acetyltransferase,"inhibitor, stopped-flow UV",,"with: serotonin 100 µM, acetyl-CoA 100 µM",IC50,> 60 µM
CC[C@@H]1[C@H](F)C(=O)N[C@@H]1COc1nccc2cc(C(N)=O)c(OC)cc12,"Cyclin-dependent kinase 14 (CDK14, Homo sapiens, UniProt O94921)","ATP-site binding, ActivX KiNativ profiling",THP-1 cell lysate,Lys1 PFTAIRE1 probe site,IC50,> 5 µM
O=c1nc(SCc2cc(F)cc(C(F)(F)F)c2)nc(SCc2ccc3sccc3c2)[nH]1,"DNA topoisomerase 2-alpha (TOP2A, Homo sapiens, UniProt P11388)","ATPase activity, ATP-competitive inhibitor",,with: ATP 0.25 mM,IC50,18.1 µM
COCc1nn(Cc2ccc(Cn3ccccc3=O)cc2)cc1C(=O)NCc1nccc(Cl)c1F,F12,,,,IC50,> 40 µM
CCCCNc1ccc(C(=O)OCCN(C)C)cc1,"Sodium channel protein type 1 subunit alpha (SCN1A, Homo sapiens, UniProt P35498)","ion current, inhibitor",cells,5 min,IC50,0.82 µM
Brc1ccc2nc(-c3ccccc3)cc(NCCCN3CCCCC3)c2c1,Low molecular weight phosphotyrosine protein phosphatase isoform A,"enzyme activity, inhibitor",,with: OMFP substrate,IC50,> 80 µM
CC(=O)c1ccc2cc(S(=O)(=O)Nc3ccccn3)ccc2c1,"Signal transducer and activator of transcription 3 (STAT3, Homo sapiens, UniProt P40763)","tyrosine phosphorylation, inhibitor, ELISA, item: phospho-Tyr705",,,IC50,8.58 µM
CC[C@H](C)[C@H](NC(=O)[C@H](CS)NC(=O)[C@H](CCC(=O)O)NC(=O)[C@H](C)NC(=O)[C@@H](NC(=O)[C@@H](N)CCCNC(=N)N)[C@@H](C)CC)C(=O)N[C@@H](CC(C)C)C(=O)NCC(=O)N[C@@H](CCSC)C(=O)O,"HLA class I histocompatibility antigen, B alpha chain (Homo sapiens, UniProt P01889)","binding, competitor, radioligand competition",,"two days, room temperature, HLA-B*07:02",IC50,16.9 µM
C[C@@H]1CN(C(=O)c2ccc(NC(=O)c3cc(O[C@H](C)c4c(Cl)ccc(F)c4Cl)c(N)nn3)cc2)C[C@H](C)N1,"ALK tyrosine kinase receptor (ALK, Homo sapiens, UniProt Q9UM73, G1202R)","enzyme activity, inhibitor",,with: 1 mM ATP,IC50,0.674 µM
Cc1nc2ccc(Cl)cc2c(=O)n1NC(=O)CCl,MAL12,"enzyme activity, inhibitor",Saccharomyces cerevisiae,with: 4-nitrophenyl glucopyranoside,IC50,19.9 ± 1.41 µM
CCS(=O)(=O)c1ncc(Cl)c(C(=O)Oc2cccc(C)c2)n1,"G-protein coupled bile acid receptor 1 (GPBAR1, Homo sapiens, UniProt Q8TDU6)",antagonist,,,IC50,1 µM
CC[C@H](C)[C@H](NC(=O)[C@H](Cc1ccccc1)NC(=O)[C@H](Cc1ccc(O)cc1)NC(=O)[C@@H]1CCCN1C(=O)[C@@H](N)Cc1ccc(O)cc1)C(=O)N1CCC[C@H]1C(=O)N[C@@H](CC(C)C)C(=O)NCC(=O)NCC(=O)NCC(=O)NCC(=O)NCC(=O)N[C@@H](CCC(=O)O)C(=O)N[C@H](C(=O)N[C@@H](CC(N)=O)C(=O)N[C@@H](CC(C)C)[C@@H](O)CC(=O)N[C@H](C(=O)N[C@@H](C)C(=O)N[C@@H](CCC(=O)O)C(=O)N1CCC[C@@H]1C(=O)N[C@@H](CCCCNC(=O)CCC(=O)O[C@H]1CC[C@@]2(C)C(=CC[C@H]3[C@@H]4CC[C@H]([C@H](C)CCCC(C)C)[C@@]4(C)CC[C@@H]32)C1)C(N)=O)C(C)C)C(C)C,"Beta-secretase 1 (BACE1, Homo sapiens, UniProt P56817)","Aβ40 lowering, AlphaLISA, item: Aβ40",HEK293 expressing wild-type human APP695,,IC50,3.2e-05 µM
COCC(=O)N1CCC[C@H](C(=O)NCc2nc(-c3ccc(OC)cc3)cs2)C1,"PSMB1/PSMB8/PSMB3 (Homo sapiens, UniProt P20618+P28062+P49720)",,,,IC50,> 30 µM
COc1cc(NCC(=O)Nn2c(C)nc3ccc(Cl)cc3c2=O)cc(OC)c1OC,MAL12,"enzyme activity, inhibitor",Saccharomyces cerevisiae,with: 4-nitrophenyl glucopyranoside,IC50,21 ± 1.27 µM
NC(=O)c1ccc(-c2cc(NCCCN3CCCCC3)c3ccccc3n2)cc1,Low molecular weight phosphotyrosine protein phosphatase isoform A,"enzyme activity, inhibitor",,with: OMFP substrate,IC50,0.67 µM
Cc1nc2ccccc2c(=O)n1NC(=O)CSc1nc2ccccc2c(=O)n1-c1ccccc1,MAL12,"enzyme activity, inhibitor",Saccharomyces cerevisiae,with: 4-nitrophenyl glucopyranoside,IC50,43.7 ± 2.12 µM
COc1ccc2cc3[n+](cc2c1OC)CCc1cc2c(cc1-3)OCO2,"srtA (Streptococcus mutans, UniProt I6L907)",inhibitor,,,IC50,127 µM
COC1CCC(C[C@H](NC(=O)c2cnc(C)s2)C(=O)N[C@@H](CC(C)C)C(=O)N[C@H](/C=C/S(C)(=O)=O)Cc2ccc(CN)cc2)CC1 (stereo partly shown),"Proteasome subunit beta type-7 (PSMB7, Homo sapiens, UniProt Q99436)","inhibitor, biochemical",,,IC50,0.281 µM
c1ccc(CN(Cc2ccccn2)C(c2ccccn2)c2ccccn2)nc1,"Proteasome subunit beta type-7, in 20S proteasome (PSMB7, Homo sapiens, UniProt Q99436)","trypsin-like activity, inhibitor, purified 20S proteasome",,"pH 7.4, with: 20 µM Bz-VGR-AMC",IC50,> 1000 µM
O=C1/C(=C2/C(=O)N(Cc3ccc(F)cc3)c3ccccc32)SC(=S)N1CCCCO,Serotonin N-acetyltransferase,"inhibitor, stopped-flow UV",,"with: serotonin 100 µM, acetyl-CoA 100 µM",IC50,> 60 µM
O=C(O)c1ccc(NS(=O)(=O)c2ccc(Cl)c(Cl)c2)cc1F,"17-beta-hydroxysteroid dehydrogenase type 2 (HSD17B2, Homo sapiens, UniProt P37059)","enzyme activity, inhibitor",,with: β-estradiol,IC50,> 100 µM
Nc1nc(N)c(OCCCOc2ccccc2CCC(=O)O)c(-c2ccc(C(F)(F)F)cc2)n1,"uncharacterized protein (Mycobacteroides abscessus, UniProt B1MD46)","enzyme activity, inhibitor, NADPH fluorescence",,with: 1 nM enzyme,IC50,0.44 µM
O=C(O)[C@@H]1C[C@H](CP(=O)(O)O)CCN1,NMDA receptor (rat),"radioligand binding, antagonist",,,IC50,0.2 µM
O=C(O)c1ccc(CN2C(=O)/C(=C3/C(=O)N(Cc4ccc(F)cc4)c4ccccc43)SC2=S)cc1,Serotonin N-acetyltransferase,"inhibitor, stopped-flow UV",,"with: serotonin 100 µM, acetyl-CoA 100 µM",IC50,11 ± 11 µM
CN1CCN(c2ccc(Nc3ncc4cc(C#N)c(=O)n(C5CCCC5)c4n3)cc2)CC1,"Serine/threonine-protein kinase 33 (STK33, Homo sapiens, UniProt Q9BYT3)",,,,IC50,0.497 µM
COc1cc(C(=O)NS(=O)(=O)c2ccccc2C)ccc1Cc1cn(C)c2ccc(NC(=O)OC3CCCC3)cc12,"LRRC8A/LRRC8C (Homo sapiens, UniProt Q8IWT6+Q8TDW0)","ion current, inhibitor, whole-cell patch clamp","HCT116 LRRC8 knockout, transfected","+100 mV, LRRC8A/LRRC8C heteromer",IC50,17.6 µM
CN(C)C(=O)N1CCN(C(=O)c2ccc(C=O)cc2)CC1,"YWHAG/RELA, phospho-Ser45 p65 peptide (Homo sapiens, UniProt P61981+Q04206)","ternary complex formation, stabilizer, fluorescence anisotropy",,,EC50,> 1000 µM
COCc1nn(Cc2ccc(Cn3ccccc3=O)cc2)cc1C(=O)NCc1cccc(OC)c1F,F12,,,,IC50,> 40 µM
COc1ccccc1-c1cc(NCCCN2CCCCC2)c2ccccc2n1,Low molecular weight phosphotyrosine protein phosphatase isoform A,"enzyme activity, inhibitor",,with: OMFP substrate,IC50,2.87 µM
CCc1ccc(/C=N/n2c(C)nc3ccc(C)cc3c2=O)s1,MAL12,"enzyme activity, inhibitor",Saccharomyces cerevisiae,with: 4-nitrophenyl glucopyranoside,IC50,37.2 ± 1.83 µM
CC(C)Cn1c(=O)n(C)c(=O)c2c1nc(Cc1cccc3ccccc13)c(=O)n2CCCCO,Slc16a1,lactate transport,MCF7 expressing Slc16a1,"10 min, with: [14C]lactate",IC50,0.548 µM
NCc1ccc(CNC(=O)c2cnn(Cc3ccc(Cn4ccccc4=O)cc3)c2)cc1,F12,,,,IC50,> 10 µM
c1ccc(-c2cc(N3CCCCC3)c3ccccc3n2)cc1,Low molecular weight phosphotyrosine protein phosphatase isoform A,"enzyme activity, inhibitor",,with: OMFP substrate,IC50,9.25 µM
O=C1[C@H](CC[C@H](O)c2ccc(F)cc2)[C@@H](c2ccc(O)cc2)N1c1ccc(F)cc1,Nuclear receptor subfamily 2 group C member 2 ligand-binding domain,SPR imaging,,,Kd,0.536 µM
O=C(O)CCCN1C(=O)/C(=C2/C(=O)N(Cc3ccc(F)cc3)c3ccccc32)SC1=S,Serotonin N-acetyltransferase,"inhibitor, stopped-flow UV",,"with: serotonin 100 µM, acetyl-CoA 100 µM",IC50,58 µM
CCc1ccc(NC(=S)N/N=C/C=C/c2ccc(F)cc2)cc1,Urease subunit alpha,"enzyme activity, indophenol method",,,IC50,10.7 ± 1.4 µM
C/C=C(\C)c1cc(O)c(C)c2c1Oc1c(C)c(O)cc(/C(C)=C/C)c1C(=O)O2,"Cystic fibrosis transmembrane conductance regulator (CFTR, Homo sapiens, UniProt P13569)","chloride current, inhibitor, short-circuit current",T84 cells,"with: forskolin, CPT-cAMP and genistein",IC50,~0.2 µM
Fc1ccc(/C=C/C=N/NC(=S)Nc2cccc(F)c2)cc1,Urease subunit alpha,"enzyme activity, indophenol method",,,IC50,15.1 ± 1.9 µM
CC(C)Cn1c(=O)n(C)c(=O)c2nc(CCCCCO)c(Cc3cccc4ccccc34)nc21,Slc16a1,lactate transport,MCF7 expressing Slc16a1,"10 min, with: [14C]lactate",IC50,0.192 µM
C=CC[C@@H]1/C=C(\C)C[C@H](C)C[C@H](OC)[C@H]2O[C@@](O)(C(=O)C(=O)N3CCCC[C@H]3C(=O)O[C@H](/C(C)=C/[C@@H]3CC[C@@H](O)[C@H](OC)C3)[C@H](C)[C@@H](O)CC1=O)[C@H](C)C[C@@H]2OC,Nuclear receptor subfamily 2 group C member 2 ligand-binding domain,SPR imaging,,,Kd,0.0156 µM
Fc1ccc(/C=C/C=N/NC(=S)NC2CCCCC2)cc1,Urease subunit alpha,"enzyme activity, indophenol method",,,IC50,7.5 ± 0.1 µM
Nc1nccc2cc(CNC(=O)c3cnn(Cc4ccc(Cn5ccccc5=O)cc4)c3)ccc12,F12,,,,IC50,> 10 µM
Cc1ccc(S(=O)(=O)Nc2ccc(C)cc2NS(=O)(=O)c2cccc(C(F)(F)F)c2)cc1,"Protein lin-28 homolog B (LIN28B, Homo sapiens, UniProt Q6ZN17)","pre-let-7d binding to Lin28B, inhibitor",,,IC50,12.9 µM

# Repeated from above:
Compound,target,test,test system,conditions,quantity,value
FC(F)(F)c1cccc(Nc2ncnc3ccc(-c4ccoc4)cc23)c1,"Epidermal growth factor receptor (EGFR, Homo sapiens, UniProt P00533)","kinase activity, inhibitor, HotSpot radiometric",,with: ATP 10 µM,IC50,0.00438 µM
COc1cc(C(=O)NS(=O)(=O)c2ccccc2C)ccc1Cc1cn(C)c2ccc(NC(=O)OC3CCCC3)cc12,"LRRC8A/LRRC8C (Homo sapiens, UniProt Q8IWT6+Q8TDW0)","ion current, inhibitor, whole-cell patch clamp","HCT116 LRRC8 knockout, transfected","+100 mV, LRRC8A/LRRC8C heteromer",IC50,17.6 µM
C[C@@H]1CN(C(=O)c2ccc(NC(=O)c3cc(O[C@H](C)c4c(Cl)ccc(F)c4Cl)c(N)nn3)cc2)C[C@H](C)N1,"ALK tyrosine kinase receptor (ALK, Homo sapiens, UniProt Q9UM73, G1202R)","enzyme activity, inhibitor",,with: 1 mM ATP,IC50,0.674 µM
CC[C@H](C)[C@H](NC(=O)[C@H](CS)NC(=O)[C@H](CCC(=O)O)NC(=O)[C@H](C)NC(=O)[C@@H](NC(=O)[C@@H](N)CCCNC(=N)N)[C@@H](C)CC)C(=O)N[C@@H](CC(C)C)C(=O)NCC(=O)N[C@@H](CCSC)C(=O)O,"HLA class I histocompatibility antigen, B alpha chain (Homo sapiens, UniProt P01889)","binding, competitor, radioligand competition",,"two days, room temperature, HLA-B*07:02",IC50,16.9 µM
CCc1ccc(/C=N/n2c(C)nc3ccc(C)cc3c2=O)s1,MAL12,"enzyme activity, inhibitor",Saccharomyces cerevisiae,with: 4-nitrophenyl glucopyranoside,IC50,37.2 ± 1.83 µM
COC1CCC(C[C@H](NC(=O)c2cnc(C)s2)C(=O)N[C@@H](CC(C)C)C(=O)N[C@H](/C=C/S(C)(=O)=O)Cc2ccc(CN)cc2)CC1 (stereo partly shown),"Proteasome subunit beta type-7 (PSMB7, Homo sapiens, UniProt Q99436)","inhibitor, biochemical",,,IC50,0.281 µM
O=C(O)[C@@H]1C[C@H](CP(=O)(O)O)CCN1,NMDA receptor (rat),"radioligand binding, antagonist",,,IC50,0.2 µM
